Assay results from different studies.
Compare with care: the assays were run in different laboratories. Numbers after ± are the reported error.

| SMILES | tested on | assay | test system | conditions | measurement | value |
| --- | --- | --- | --- | --- | --- | --- |
| Cc1cc(C)cc(COc2cc3c(cc2OCc2cc(C)cc(C)c2)[C@H]2C[C@@](O)(Cc4cn(Cc5ccc(F)cc5)nn4)C[C@@H](C)N2CC3)c1 | GES1 | cell growth or viability, MTT |  | 48 h | IC50 | 1920 nM |
| CN1CCC(N[C@@H]2CCc3[nH]c4c(C(N)=O)ccc(-c5ccccc5Cl)c4c3C2)CC1 | Pfeiffer | cell growth or viability |  |  | IC50 | 14.8 nM |
| Cc1ccc(-c2ccc(C3CCCCC3)cc2)cn1 |  | liver microsome stability | rat liver microsomes | 1 µM | hepatic clearance | 52 mL/min/kg |
| COC(CC1C(C)=CCC2C1(C)CCC1C(C)(C)C(O)C(O)CC12C)C(N)C(=O)O (stereo not drawn) | 3T3 fibroblasts | cell viability, CCK-8 |  | 72 h | IC50 | > 10000 nM |
| Cc1ccc([N+](=O)[O-])cc1S(=O)(=O)N(C)/N=C/c1cnc2ccc(Br)cn12 | SK-MEL-2 | cell growth or viability |  |  | IC50 | 317 nM |
| C=CC(=O)Nc1cc(Nc2nccc(-c3cn(C)c4ccccc34)n2)c(OC)cc1N(C)CCN(C)C | BaF3 | cell growth or viability |  | 72 h | IC50 | 2840 nM |
| CCCCCC(=O)Oc1c(C)c(OC)c2c(/C=C/c3ccccc3)c(CCCC)c(=O)oc2c1C | HT-29 | cell growth or viability, SRB |  | 72 h | IC50 | > 50000 nM |
| CN(C)c1ccc(/C=C/c2cc(/C=C3\Sc4ccccc4N3CCCN3CCCC3)c3ccccc3[n+]2C)cc1 | 16HBE | cell growth or viability, MTT |  | 36 h | IC50 | 8490 nM |
| COc1ccc(COC[C@](O)(CNCc2ccc(F)cc2)[C@@H]2CC[C@@H](C)C[C@H]2OCc2ccc(OC)cc2)cc1 | A2780 | cell growth or viability, MTT |  | 72 h | IC50 | 1920 nM |
| CCN(C(=O)c1cc(F)ccc1Oc1nncnc1N1CCC2(C1)CN(C(CCCN(C)CCOC)C(C)C)C2)C(C)C (stereo not drawn) | OCI-AML-3 (NPM1c) | cell growth, live-cell imaging, spheroid-like |  | concentration not given, 8 days | IC50 | > 1000 nM |
| CCOc1cncc(-c2ccc(NC(=O)C3(c4ccnc(NS(=O)(=O)C5CC5)n4)CCOCC3)nc2)n1 | CCRF-CEM-VCR | cell proliferation, CellTiter-Glo |  | 72 h, lymphoid haematological cancer | IC50 | 183 nM |
| O=C(CN1CCOCC1)Nc1ccc(C2CCCCC2)cc1 |  | liver microsome stability | rat liver microsomes | 1 µM | hepatic clearance | 45 mL/min/kg |
| CNS(=O)(=O)Nc1nccc(Cc2c(C)c3ccc(Oc4ncccc4F)cc3oc2=O)c1F | MINO | cell viability, CellTiter-Glo |  | 7 days | IC50 | 12.7 nM |
| C[C@@H]1CC[C@@H]([C@](O)(CNCc2ccc(F)cc2)COCc2ccccc2)[C@H](OCc2ccccc2)C1 | A2780 | cell growth or viability, MTT |  | 72 h | IC50 | 11800 nM |
| CC(C)c1ccc(N(C)c2ccc3c(c2)OCC[C@H]3CNc2cnccc2C(=O)O)cc1 | NCI-H1299 | cell viability, CellTiter-Glo |  | 7 days | IC50 | 7.5 nM |
| COc1cc(-c2cn(C)c(=O)c3cnccc23)cc(OC)c1Cn1ccnc1 | MOLM16 | cell growth or viability, ATP luminescence |  |  | IC50 | 6800 nM |
| Cc1ccc(-c2ccc(C)cn2)nc1.[Co+2].[O-]c1c(I)cc(Cl)c2cccnc12.[O-]c1c(I)cc(Cl)c2cccnc12 | BEL-7404 | cell growth or viability, MTT |  | 48 h | IC50 | 10300 nM |

| SMILES | tested on | assay | test system | conditions | measurement | value |
| --- | --- | --- | --- | --- | --- | --- |
| NC(=O)c1ccc(-c2ccccc2Cl)c2c3c([nH]c12)CCC(N)C3 (stereo not drawn) | MINO | cell growth or viability |  | 96 h | IC50 | 24 nM |
| CC(C)(C)c1cnc(CSc2cnc(NC(=O)C3CCN(C(=O)CCCCCCN4Cc5cc6c(cc5C4)C(=O)N(C4CCC(=O)NC4=O)C6=O)CC3)s2)o1 (stereo not drawn) | SJSA-1 | cell growth or viability, MTT |  |  | IC50 | 422 nM |
| C=CC(=O)N1CCC[C@@H](n2nc(-c3ccc(Oc4ccccc4)cc3)c3c(N)ncnc32)C1 | TMD8 ABBV-105-resistant | cell viability, CellTiter-Glo |  | 4 days, 48 h drug withdrawal | IC50 | 186 nM |
| Cc1ccc2c(Cl)cc(Cl)c([O-])c2n1.Cc1ccc2c(Cl)cc(Cl)c([O-])c2n1.Clc1ccnc2c1ccc1c(Cl)ccnc12.[Co+2] | BEL-7404 | cell growth or viability, MTT |  | 48 h | IC50 | 3860 nM |
| Cc1cc(Cl)cc(-c2ccnc3cc(CN4C(=O)C5C(C4=O)C5(C)C)sc23)c1C[C@@H]1CNCCO1 (stereo partly drawn) | CHP-212 parental | cell viability, SRB |  | mean of 3 runs | IC50 | 410 nM |
| CC(=O)Oc1ccccc1C(=O)[O][Pt]([NH2])([NH2])([Cl])([Cl])[O]C(C)=O | 2008 ovarian adenocarcinoma | cytotoxicity, MTT |  | 72 h | IC50 | 650 ± 100 nM |
| CN1CCN(c2ccc(-c3cncc(Cl)c3N3CCC4(CCNC4=O)CC3)cc2)CC1 | LS174T | WNT reporter gene, inhibitor, TCF/LEF luciferase |  |  | IC50 | 56 nM |
| CCCC(CCC)C(=O)[O][Pt]([NH2])([NH2])([Cl])([Cl])[O]C(C)=O | 2008 ovarian adenocarcinoma | cytotoxicity, MTT |  | 72 h | IC50 | 1590 ± 600 nM |
| Cc1c(C)c2cccnc2c2ncccc12 | BEL-7404 | cell growth or viability, MTT |  | 48 h | IC50 | > 50000 nM |
| Cn1ccnc1S/C(=C\C=C(C#N)C#N)c1ccc(Cl)cc1 | OVCAR-8 | cell growth or viability, ATP luminescence |  | 48 h | IC50 | 2060 nM |
| Cn1ncc(-c2ccc3c(=O)[nH]nc(CN)c3c2)c1-c1c(F)c(Cl)cc(OC2CC2)c1C#N | A101D | cell viability, inhibitor, CellTiter-Glo |  | 120 h, baseline-subtracted | IC50 | 50 nM |
| O=[P@]1(c2ccccc2)CC[C@@H](O)CC1 | HaCaT | cell growth or viability, MTT |  | 72 h | IC50 | > 100000 nM |
| CCOC(=O)CC[C@@H](C)[C@H]1CC[C@H]2[C@@H]3[C@H](O)C[C@@H]4C[C@H](O)CC[C@]4(C)[C@H]3C[C@H](O)[C@]12C | A2780 | cell growth or viability, MTT |  | 96 h | IC50 | 35000 nM |
| Cc1ccc2c(Cl)cc(Cl)c([O-])c2n1.Cc1ccc2c(Cl)cc(Cl)c([O-])c2n1.[Co+2].c1ccc(-c2ccnc3c2ccc2c(-c4ccccc4)ccnc23)cc1 | BEL-7404 | cell growth or viability, MTT |  | 48 h | IC50 | 4920 nM |
| COc1ccc(CNC[C@](O)(COCc2ccccc2)[C@@H]2CC[C@@H](C)C[C@H]2OCc2ccccc2)cc1 | A2780 | cell growth or viability, MTT |  | 72 h | IC50 | 2510 nM |
| C=CC(=O)N1CCCC(n2c(=O)c3ncccc3n(Cc3ccc(Oc4ccccc4)cc3)c2=O)C1 (stereo not drawn) | Karpas-1718 | cell growth or viability, MTT |  | 72 h | IC50 | 300 nM |
